Measurements collected from several papers.
Lines come from different studies, so protocols differ. Values joined by “and” are separate records of one study, mostly repeats; a detail may differ. Numbers after ± are the reported error. In brackets after ≈: the same amount, converted by molar mass.

O=C1c2sc(-c3ccc(N4CCC(F)C4)nc3F)nc2CCN1c1cccnc1 (centres unmarked)  concentration (CD1 mouse, brain; i.v., dose not given, 1.25 h): 15.6 ng/g and 10.6 ng/g
N#C[C@@H]1CC(F)(F)CN1C(=O)CNC(=O)c1ccnc2c(NC(=O)[C@H](CCCCNC(=O)CCOCCOCCOCCOCCOCCOCCNC(=O)CN3CCN(CC(=O)[O-])CCN(CC(=O)[O-])CCN(CC(=O)[O-])CC3)NC(=O)CCCc3ccc(I)cc3)cccc12.[177Lu+3]  radiochemical stability (PBS; 24 h, 37 °C, 177Lu-labelled): 96.5 ± 4.8%
CC(C)(C)C(=O)Nc1ccc2[nH]c(CN3CCC(N(CCCN4CCOCC4)CC4OC(n5cnc6c(N)ncnc65)C(O)C4O)CC3)nc2c1 (centres unmarked)  concentration (male Sprague-Dawley rat, plasma; intravenous, 20 mg/kg, 6 h): 7 ng/mL
OCC1OC(n2cnc3c(NCc4ccc(Br)s4)ncnc32)C(O)C1O (centres unmarked)  Vd (beagle dog, blood; intravenous, 0.5 mg/kg): 16.3 L/kg
C/C(N)=N/C(=N\S(=O)(=O)c1ccc(C(F)(F)F)cc1)N1C[C@H](c2ccccc2)C(c2ccc(Cl)cc2)=N1  Tmax (Beagle dog, plasma; oral, 6 mg/kg, observed value): 4 h
COc1cc(-c2nc3ccccc3s2)cc(CN2CCNCCN(Cc3cc(-c4nc5ccccc5s4)cc(OC)c3O)CC2)c1O  pKa3 (UV-vis spectrophotometric titration; aqueous NaCl 0.1 M; 20 µM, 25 °C, pH 3 to 11): 6.98
CNc1cc(N)c(C(N)=O)c[n+]1C  plasma concentration of product (substrate, measured: methylated product; rats, plasma; oral, 30 mg/kg, 4.00 h): 173 nM and 195 nM
CCCCN1C(=O)c2cccc3c(NCCCCCCCCCCN4CCOCC4)ccc(c23)C1=O  Stokes shift (toluene): 84 nm
O=C([O-])CN1CCN(CC(=O)[O-])CCN(C(CO)C(O)CO)CCN(CC(=O)[O-])CC1.[Dy+3] (centres unmarked)  lanthanide concentration (cynomolgus monkey, cerebrum; dose not given, day 5): 0.026 ± 0.01 nmol/g
CCCCN1C(=O)c2cccc3c(NCCCCCN4CCOCC4)ccc(c23)C1=O  fluorescence lifetime (DMF): 10.1 ns
CC[C@H](C)[C@@H]1NC(=O)[C@H](Cc2ccc(O)cc2)NC(=O)CCCSC[C@@H](C(=O)N(CC(=O)N[C@@H](CC(C)C)C(=O)NCC(N)=O)Cc2ccc(F)cc2)NC(=O)[C@H](CC(N)=O)NC(=O)[C@H](CCC(N)=O)NC1=O  terminal half-life (healthy human, plasma; intranasal, 50 µg every 3 h, after first dose): 1.45 h
C=C(NC(=O)c1csc(-c2nc3c(cc2O)-c2nc(cs2)C(=O)NC(C(C)O)C(=O)NC(=C(C)OC)c2nc(cs2)C(=O)NC2c4nc(cs4)C(=O)NC(COC(=O)c4c5c6c(cccc6n4O)COC(=O)C(OC4CC(C)(O)C(N(C)C)C(C)O4)C2OC5)c2nc-3cs2)n1)C(N)=O (centres unmarked)  clearance (Sprague-Dawley rat, male, plasma; intravenous infusion, 2 mg/kg single dose): 42.9 mL/min/kg
Cc1cc(NC(=O)C(=O)N2C[C@@H](C)CC[C@@H]2c2ccc3scnc3c2)cnc1N  Kp,uu (mouse orthotopic brain tumour, brain and plasma; oral, 120 mg/kg twice daily; relative to: brain over plasma): ~0.15
CCCCN1C(=O)c2cccc3c(NCCCCCCCCN4CCOCC4)ccc(c23)C1=O  Stokes shift (toluene): 77 nm
C=CC(=O)Nc1cc(Nc2nccc(-c3c[nH]c4ccccc34)n2)c(OC)cc1N(C)CCN(C)C  recovery (storage stability; human dried blood spots; 5 h, -80 °C, low QC level): 99.2%
CC1(C)CC[C@@]2(CO)C(=C3C=C[C@@H]4[C@@]5(C)CC[C@H](O)[C@@](C)(CO)[C@@H]5CC[C@@]4(C)[C@]3(C)C[C@@H]2O)C1  plasma concentration (UHPLC-MS/MS; mouse, plasma; oral, 50 mg/kg of saikosaponin a, 8 h): 64.6 ng/mL
[123I]c1ccc2nc(-c3ccc(-n4ccnn4)nc3)cn2c1  tracer uptake (male Wistar rat, spleen; intravenous, 4 MBq, 1 h): 0.11 %ID/g
CCC1CNC(CC)CN(C(C(=O)[O-])c2ccc(C(=O)[O-])cc2)C(CC)CN(CC(=O)[O-])C(CC)CN1.[Mn+2] (centres unmarked)  Mn content (ICP-MS; BALB/c mouse, lung; intravenous, 0.05 mmol/kg, 1440 min, without anaesthesia): 0.3 ± 0.03 µg/g
O=C(NCC1OC2CCC=CCCC2O1)c1ccc([18F])nc1 (centres unmarked)  tissue uptake (healthy female BALB/c nude mice, bladder; intravenous, 7.4 MBq per mouse, 60 min): 2.9 ± 1.1 %ID/g
CC(C)Cc1ccc(C(C)C(=O)NC(CCCCNC(=O)CCOCCOCCOCCOCCOCCOCCNC(=O)CN2CCN(CC(=O)[O-])CCN(CC(=O)[O-])CCN(CC(=O)[O-])CC2)C(=O)Nc2cccc3c(C(=O)NCC(=O)N4CC(F)(F)C[C@H]4C#N)ccnc23)cc1.[68Ga+3] (some centres unmarked)  radiochemical stability (human serum; 30 min, 37 °C, 68Ga-labelled): 99.53 ± 0.8%
CN1CCCNC(=O)c2cccc(c2)C(=O)NCCCN(C)CCCNc2cccc3c2C(=O)c2cccc(c2C3=O)NCCC1  uric acid (nude mice, serum; dose not given, 10 days): 5.9 ± 0.3 mg/dL
CCc1cnc(NC(=O)c2cc(S(=O)(=O)N3CCOCC3)ccc2N(C)C2CCCC2)s1  Calcium (mouse, serum; 10 mg/kg, 3 doses): 10.4 mg/dL
CCCCN1C(=O)c2cccc3c(NCCCCCCN4CCOCC4)ccc(c23)C1=O  Stokes shift (acetonitrile): 91 nm
CC1(C)C(NC(=O)C(=NOC2(C(=O)O)CCC2)c2csc(N)n2)C(=O)N1OS(=O)(=O)O (centres unmarked)  clearance (Sprague-Dawley rat, plasma; intravenous, 10 mg/kg): 11.7 ± 4.54 mL/min/kg
O=S(=O)(N[C@H]1CCO[C@@H](C2c3ccccc3CCc3ccccc32)C1)c1ccc(OC(F)(F)F)cc1  brain concentration (mouse, brain; oral, 30 mg/kg, 2 h): ~2000 nM
N#C[C@@H]1CC(F)(F)CN1C(=O)CNC(=O)c1ccnc2c(NC(=O)CCOCCOCCOCCOCCOCCOCCNC(=O)C(CCCCNC(=O)CN3CCN(CC(=O)[O-])CCN(CC(=O)[O-])CCN(CC(=O)[O-])CC3)NC(=O)CCCc3ccc(I)cc3)cccc12.[68Ga+3] (some centres unmarked)  radiochemical stability (PBS; 120 min, 37 °C, 68Ga-labelled): 98.45 ± 0.5%
CCCCN1C(=O)c2cccc3c(NCCCCN4CCOCC4)ccc(c23)C1=O  Stokes shift (DMSO): 87 nm
COc1cccc(OC)c1-c1cc(C(=O)NC2(C(=O)O)C3CC4CC(C3)CC2C4)nn1-c1ccc(C(=O)N(C)CCOCCOCCN(C)C(=O)[C@H](CCCCNC(=O)[C@H](CC(C)C)NC(=O)C2OC2C(=O)O)NC(=O)CN2CCN(CC(=O)[O-])CCN(CC(=O)[O-])CCN(CC(=O)[O-])CC2)cc1C(C)C.[177Lu+3] (mixture of isomers)  tissue uptake (mouse, HT-29 xenograft, brain; 4 h post injection): 0.18 %ID/g
O=C(Nc1cnccc1-c1ccc([18F])cc1)c1ccnc(NC(=O)C2CC2)c1  SUV (mice, transgenic, GSK-3β, early-stage, stomach; intravenous, dose not given, 120 min, added: tariquidar 15 mg/kg i.v. pre-dose): 1.74
Cc1n[nH]c(C)c1CCCOc1cc(C(=O)NCCCCC(NC(=O)CN2CCN(CC(=O)[O-])CCN(CC(=O)[O-])CCN(CC(=O)[O-])CC2)C(=O)NCC2CCC(C(=O)NC(Cc3ccc4ccccc4c3)C(=O)NCCCCC(NC(=O)NC(CCC(=O)O)C(=O)O)C(=O)O)CC2)ccc1F.[68Ga+3] (centres unmarked)  radiochemical purity (radio-HPLC; saline; 4 h, pH 7.4, room temperature): 95.4 ± 0.99%
O=C(Nc1cnccc1-c1ccc([18F])nc1)c1ccnc(NC(=O)C2CC2)c1  SUV (FVB/NJ mice, both sexes, brain; intravenous, 50 min, median, no P-gp inhibitor): 0.046
Cc1[nH]nc2c1N=C(c1ccccc1Cl)c1cnc(N3CCOCC3)cc1N2  Vd (male beagle dog, plasma; intravenous, 1 mg/kg): 2.35 L/kg
Cc1cc(C(=O)NC(C)(C)C(=O)O)cc(C)n1  plasma peak area (LC-MS metabolite profiling; Sprague-Dawley rat, both sexes, plasma; oral, 100 mg/kg of parent drug, 2 (unit not given); higher = more metabolite): 26900 a.u.
Cc1nc(N)nc2c1C(=O)N[C@@H](c1ccc(F)cc1-c1cccc(O[11CH3])n1)C2  tracer uptake (ex vivo biodistribution; healthy mice, intestines; 60 min post-injection, baseline, vehicle pre-treatment): 20.7 ± 1.9 %ID
[11CH3]N1CCC(NC(=O)c2cc(-c3c(O)cc(O)cc3Oc3ccc([N+](=O)[O-])cc3)on2)CC1  standardized uptake value (healthy female Wistar rats, blood; intravenous, 30 min): 0.8 ± 0.2 g/mL
CC[C@H](C)[C@H](NC(=O)[C@H](Cc1ccc(O)cc1)NC(=O)[C@@H](NC(=O)[C@H](CCCNC(=N)N)NC(=O)[C@@H](N)CC(=O)O)C(C)C)C(=O)N[C@@H](Cc1c[nH]cn1)C(=O)N1CCC[C@H]1C(=O)O  plasma concentration (LC-MS/MS; Sprague-Dawley rat, both sexes, plasma; subcutaneous, 10 mg/kg/day, day 0, 1.5 h, 90 min): 2.91 ng/mL
Nc1ncnc2[nH]c(/C=C/c3ccc(Cl)cc3)nc12  purity (HPLC; solution; after 1 h light exposure): 95.5%
C[C@@H](C(=O)O)n1nc(Cn2cc3cc(OCC[18F])c(Cl)cc3n2)c2ccccc2c1=O  brain uptake (PET; C57BL/6 mouse male; 40 min): 0.34 %ID/g
O=C(O)CCCOc1ccc([18F])cc1-c1cc(-c2ccccc2C(F)(F)F)n(-c2ccccc2)n1  absorbed radiation dose (OLINDA/EXM extrapolation from mouse; human adult, gallbladder wall): 10.9 µGy/MBq
CC(=O)N([O-])CCCCCNC(=O)CCC(=O)N([O-])CCCCCNC(=O)CCC(=O)N([O-])CCCCCN.[89Zr+4]  tracer uptake (mouse, fat; 1 h): 0.07 %ID/g
CCCCN1C(=O)c2cccc3c(NCCCN4CCOCC4)ccc(c23)C1=O  Stokes shift (chloroform): 68 nm
CN(Cc1cc(C2CC2)on1)C(=O)c1cccc(-c2ccc(F)cc2)c1  remaining compound (male ICR/CD-1 mouse, liver microsomes; 2 µM, 0 min, pH 7.5, added: 1-aminobenzotriazole 500 µM, preincubated 30 min): 100%
O=S1(=O)CC2CCCCC2CS1 (centres unmarked)  solubility (phase solubility, NMR; water; 25 °C, added: hydroxypropyl-β-cyclodextrin 176 mM): 21.4 mM (≈ 4420 µg/mL)
C[N+](C)(CCOCCOCCOCCNC(=S)Nc1ccc(C[C@H]2CN(CC(=O)[O-])CCN(CC(=O)[O-])CCN2CC(=O)[O-])cc1)C[c-]1cccc1.[64Cu+2].[Fe+2].c1cc[cH-]c1  weighted blood half-life (healthy nude mice, blood; intravenous, dose not given): 0.183 h

A few entries again:
CC[C@H](C)[C@@H]1NC(=O)[C@H](Cc2ccc(O)cc2)NC(=O)CCCSC[C@@H](C(=O)N(CC(=O)N[C@@H](CC(C)C)C(=O)NCC(N)=O)Cc2ccc(F)cc2)NC(=O)[C@H](CC(N)=O)NC(=O)[C@H](CCC(N)=O)NC1=O  terminal half-life (healthy human, plasma; intranasal, 50 µg every 3 h, after first dose): 1.45 h
C=C(NC(=O)c1csc(-c2nc3c(cc2O)-c2nc(cs2)C(=O)NC(C(C)O)C(=O)NC(=C(C)OC)c2nc(cs2)C(=O)NC2c4nc(cs4)C(=O)NC(COC(=O)c4c5c6c(cccc6n4O)COC(=O)C(OC4CC(C)(O)C(N(C)C)C(C)O4)C2OC5)c2nc-3cs2)n1)C(N)=O (centres unmarked)  clearance (Sprague-Dawley rat, male, plasma; intravenous infusion, 2 mg/kg single dose): 42.9 mL/min/kg
Cc1cc(NC(=O)C(=O)N2C[C@@H](C)CC[C@@H]2c2ccc3scnc3c2)cnc1N  Kp,uu (mouse orthotopic brain tumour, brain and plasma; oral, 120 mg/kg twice daily; relative to: brain over plasma): ~0.15
CCCCN1C(=O)c2cccc3c(NCCCCCCCCN4CCOCC4)ccc(c23)C1=O  Stokes shift (toluene): 77 nm
C=CC(=O)Nc1cc(Nc2nccc(-c3c[nH]c4ccccc34)n2)c(OC)cc1N(C)CCN(C)C  recovery (storage stability; human dried blood spots; 5 h, -80 °C, low QC level): 99.2%
